Assay results collected from several papers.
Protocols differ between the studies behind these lines. Numbers after ± are the reported error.

SMILES	tested on	test	system	setting	endpoint	value
CC[C@H](C)[C@H](NC(=O)[C@@H](CCCNC(=N)N)NC(=O)[C@H](CCCNC(=N)N)NC(=O)[C@@H]1CCCN1C(=O)[C@@H]1CCCN1C(=O)[C@H](Cc1c[nH]cn1)NC(=O)[C@@H]1CCCN1C(=O)[C@H](CCCNC(=N)N)NC(=O)[C@@H]1CCCN1C(=O)[C@H](CC(C)C)NC(=O)[C@H](Cc1ccc(O)cc1)NC(=O)[C@@H]1CCCN1C(=O)[C@@H]1CCCN1C(=O)[C@H](CCCCN)NC(=O)[C@H](CC(=O)O)NC(=O)[C@@H](N)C(C)C)C(=O)N[C@@H](Cc1ccc(O)cc1)C(=O)N[C@@H](CC(N)=O)C(=O)N[C@H](CCCNC(=N)N)C(N)=O	Escherichia coli	broth microdilution	MC4100	18 h, 37 °C, 25% MHB2	MIC	8 µg/mL
CCCCCCCCCCCC(=O)C(C)C(=O)N1CCC[C@H]1C(=O)NC(C)(C)C(=O)NC(C)(C)C(=O)NC(C)(C)C(=O)N[C@](C)(CC)C(=O)NCCC(=O)N[C@@H](C)C(=O)N[C@](C)(CC)C(=O)N[C@@H](C)C(=O)N[C@@H](CC(C)C)C(=O)N[C@](C)(CC)C(=O)NCCC(=O)N[C@@H](C)C(=O)N[C@](C)(CC)C(=O)NCCC(=O)N[C@@H](C)C(=O)NC(C)(C)C(=O)NC(C)(C)C(=O)NC(C)(C)C(=O)N[C@@H](C)C(=O)N[C@@H](CC(=O)O)C(=O)O (stereo partly drawn)	Escherichia coli		BW25113 ΔbamB ΔtolC		MIC	> 128 µg/mL
CC[C@H](C)[C@H](NC(=O)[C@@H](CCCNC(=N)N)NC(=O)[C@H](CCCNC(=N)N)NC(=O)[C@@H]1CCCN1C(=O)[C@@H]1CCCN1C(=O)[C@H](CCCNC(=N)N)NC(=O)[C@@H]1CCCN1C(=O)[C@H](CCCNC(=N)N)NC(=O)[C@@H]1CCCN1C(=O)[C@H](CC(C)C)NC(=O)[C@H](Cc1c[nH]c2ccccc12)NC(=O)[C@@H]1CCCN1C(=O)[C@@H]1CCCN1C(=O)[C@H](CCCCN)NC(=O)[C@H](CC(=O)O)NC(=O)[C@@H](N)C(C)C)C(=O)N[C@@H](Cc1ccc(O)cc1)C(=O)N[C@@H](CC(N)=O)C(=O)N[C@H](CCCNC(=N)N)C(N)=O	Escherichia coli	broth microdilution	ATCC 25922	18 h, 37 °C, 25% MHB2	MIC	8 µg/mL
CC[C@H](C)[C@H](NC(=O)[C@@H](NC(=O)[C@H](CCCCN)NC(=O)[C@H](CCC(N)=O)NC(=O)[C@@H](NC(=O)[C@H](Cc1c[nH]c2ccccc12)NC(=O)[C@H](CCCCN)NC(=O)[C@H](CCCCN)NC(=O)[C@H](CC(C)C)NC(=O)[C@H](CCCNC(=N)N)NC(=O)[C@H](Cc1ccccc1)NC(=O)[C@@H](N)C(C)C)[C@@H](C)CC)C(C)C)C(N)=O	Escherichia coli			24 h, 37 °C, Mueller-Hinton broth, NH4Cl 6 µM	MIC	64 µM
CC(C)C[C@@H]1NC(=O)[C@H](CCCCN)NC(=O)C(N)CCC=CCCC(C(N)=O)NC(=O)[C@H](CCCCN)NC(=O)[C@H](CC(C)C)NC(=O)[C@H](CCCCN)NC(=O)C2CCC=CCCC(NC(=O)[C@H](CCCCN)NC1=O)C(=O)N[C@@H](CCCCN)C(=O)N1CCC[C@@H]1C(=O)NCC(=O)N[C@@H](CCCCN)C(=O)N2 (stereo partly drawn)	Escherichia coli	broth microdilution	ATCC 25922, Mueller-Hinton broth	18 h, 37 °C	MIC	32 µM
COc1c(NC(=O)c2ccc(NC(=O)c3ccc(NC(=O)[C@H](CC(N)=O)NC(=O)c4ccc(NC(=O)[C@@H](N)Cc5ccccc5)cc4)cc3)c(OC)c2O)ccc(C(=O)O)c1O	Escherichia coli		monooxygenase clone	16 h, 37 °C	MIC	8 µg/mL
CC[C@H](C)[C@H](NC(=O)[C@H](Cc1c[nH]c2ccccc12)NC(=O)c1ccccc1)C(=O)N[C@@H](CCCNC(=N)N)C(=O)N[C@@H](Cc1ccc(O)cc1)C(=O)N[C@@H](CCCCN)C(=O)N[C@@H](Cc1c[nH]c2ccccc12)C(=O)N1CCC[C@@H]1C(=O)N[C@@H](CCCNC(=N)N)C(=O)N[C@@H](CCCCN)C(=O)N[C@@H](CCCCN)C(=O)N[C@H](C(=O)N[C@@H](CCCNC(=N)N)C(=O)N[C@@H](Cc1ccc(O)cc1)C(=O)N[C@@H](Cc1c[nH]c2ccccc12)C(=O)N[C@H](C(=O)NCC(=O)N1CCC[C@H]1C(N)=O)[C@@H](C)O)C(C)C	Escherichia coli		DH5α	16 h, 37 °C	MIC	> 100 µM
CC[C@H](C)[C@H](NC(=O)[C@@H](CCCNC(=N)N)NC(=O)[C@H](CCCNC(=N)N)NC(=O)[C@@H]1CCCN1C(=O)[C@@H]1CCCN1C(=O)[C@H](CCCNC(=N)N)NC(=O)[C@@H]1CCCN1C(=O)[C@H](CCCNC(=N)N)NC(=O)[C@@H]1CCCN1C(=O)[C@H](CC(C)C)NC(=O)[C@H](Cc1ccc(O)cc1)NC(=O)[C@@H]1CCCN1C(=O)[C@@H]1CCCN1C(=O)[C@H](CCCCN)NC(=O)[C@H](CC(=O)O)NC(=O)[C@@H](N)C(C)C)C(=O)N[C@@H](Cc1cc(I)c(O)c(I)c1)C(=O)N[C@@H](CC(N)=O)C(=O)N[C@H](CCCNC(=N)N)C(N)=O	Escherichia coli	broth microdilution	MC4100	18 h, 37 °C, 25% MHB2	MIC	8 µg/mL
O=C1NC2(CC2)COc2ncc(F)cc2[C@H]2COCCN2c2ccn3ncc1c3n2			Sprague-Dawley rat, female, blood	oral, 5 mg/kg/day, 4 weeks, end of treatment, subacute toxicity	haemoglobin	128 ± 14 g/L
CC[C@H](C)[C@H](NC(=O)[C@H](C)NC(=O)[C@@H](NC(=O)[C@H](CC(=O)O)NC(=O)[C@H](CCCCN)NC(=O)[C@H](CO)NC(=O)[C@@H](NC(=O)[C@H](CC(N)=O)NC(=O)[C@H](C)NC(=O)[C@@H](NC(=O)[C@H](CCC(=O)O)NC(=O)[C@H](CCCCN)NC(=O)[C@@H](NC(=O)[C@@H](NC(=O)[C@H](Cc1c[nH]cn1)NC(=O)[C@H](CCCCN)NC(=O)[C@@H](NC(=O)[C@H](CCCCN)NC(=O)[C@H](CCCCN)NC(=O)[C@@H](NC(=O)[C@H](CC(C)C)NC(=O)[C@H](CCCCN)NC(=O)[C@H](CC(N)=O)NC(=O)[C@H](Cc1ccccc1)NC(=O)[C@H](CCCNC(=N)N)NC(=O)[C@H](CCCCN)NC(=O)[C@H](CCCNC(=N)N)NC(=O)[C@H](Cc1ccccc1)NC(=O)CN)C(C)C)C(C)C)[C@@H](C)O)[C@@H](C)CC)[C@@H](C)O)C(C)C)C(C)C)C(=O)N[C@H](C(=O)N[C@@H](C)C(=O)NCC(=O)N[C@@H](CO)C(=O)NCC(=O)N[C@H](C(=O)N[C@@H](C)C(=O)N[C@H](C(=O)NCC(=O)N[C@@H](C)C(=O)N[C@@H](C)C(=O)N[C@@H](CCSC)C(N)=O)C(C)C)C(C)C)C(C)C	Escherichia coli		ATCC 25922, CAMHB with 10% mouse serum		MIC	0.125 µg/mL
CC[C@H](C)[C@H](NC(=O)[C@@H](CCCNC(=N)N)NC(=O)[C@H](CCCNC(=N)N)NC(=O)[C@H](C)NC(=O)[C@H](Cc1c[nH]c2ccccc12)NC(=O)[C@H](CCCNC(=N)N)NC(=O)[C@@H]1CCCN1C(=O)[C@H](CCCNC(=N)N)NC(=O)[C@@H]1CCCN1C(=O)[C@H](CC(C)C)NC(=O)[C@H](Cc1ccc(O)cc1)NC(=O)[C@@H]1CCCN1C(=O)[C@@H]1CCCN1C(=O)[C@H](CCCCN)NC(=O)[C@H](CC(=O)O)NC(=O)[C@@H](N)C(C)C)C(=O)N[C@@H](Cc1ccc(O)cc1)C(=O)N[C@@H](CC(N)=O)C(=O)N[C@H](CCCNC(=N)N)C(N)=O	Escherichia coli	broth microdilution	MC4100	18 h, 37 °C, 25% MHB2	MIC	16 µg/mL
CC1(C)C(NC(=O)C(=NOC2(C(=O)O)CCC2)c2csc(N)n2)C(=O)N1OS(=O)(=O)O (stereo not drawn)	Escherichia coli	agar dilution	CDC 1001728, NDM-1		MIC	0.5 µg/mL
CC(C)[C@H](NC(=O)[C@H](CCCNC(=N)N)NC(=O)[C@H](Cc1ccccc1)NC(=O)[C@H](CS)NC(=O)[C@H](Cc1c[nH]c2ccccc12)NC(=O)[C@@H](N)CCCCN)C(=O)N[C@@H](CS)C(=O)N[C@@H](Cc1c[nH]c2ccccc12)C(=O)N[C@@H](CCCNC(=N)N)C(=O)N[C@@H](Cc1c[nH]c2ccccc12)C(=O)N[C@@H](Cc1ccccc1)C(=O)N[C@@H](CS)C(=O)N[C@@H](Cc1c[nH]c2ccccc12)C(=O)N[C@@H](CCCNC(=N)N)C(=O)N[C@@H](CCCCN)C(=O)N[C@@H](CS)C(=O)N[C@@H](CCCNC(=N)N)C(=O)O	Escherichia coli	broth microdilution	K88, Mueller-Hinton broth	37 °C	MIC	35.2 µg/mL
CC(C)C[C@@H](NC(=O)[C@H](NC(=O)[C@@H](CCCCN)NC(=O)[C@@H](CCCCN)NC(=O)[C@@H](CC(C)C)NC(=O)[C@@H](Cc1c[nH]c2ccccc12)NC(=O)[C@@H](CCCCN)NC(=O)[C@@H](Cc1c[nH]c2ccccc12)NC(=O)[C@@H](CC(C)C)NC(=O)[C@@H](CCCCN)NC(=O)[C@@H](CCCCN)NC(=O)[C@H](N)C(C)C)C(C)C)C(N)=O	Escherichia coli			24 h, 37 °C, Mueller-Hinton broth, CaCl2 2.5 mM	MIC	32 µM
CC[C@H](C)[C@@H]1NC(=O)CNC(=O)[C@H](CCCNC(=N)N)NC(=O)[C@H](Cc2ccc(O)cc2)NC(=O)[C@@H]2CSSC[C@H](NC1=O)C(=O)N[C@@H](Cc1ccc(O)cc1)C(=O)N[C@@H](CCCNC(=N)N)C(=O)N[C@@H](CCCNC(=N)N)C(=O)N[C@H](C(=O)N[C@@H](CCCNC(=N)N)C(=O)N[C@@H](Cc1c[nH]c3ccccc13)C(=O)N[C@@H](CCCCN)C(=O)O)CSSC[C@H](NC(=O)[C@H](Cc1c[nH]c3ccccc13)NC(=O)[C@H](Cc1c[nH]c3ccccc13)NC(=O)[C@@H](N)CCCCN)C(=O)N[C@@H](Cc1ccccc1)C(=O)N[C@@H](CCCNC(=N)N)C(=O)N[C@@H](C(C)C)C(=O)N2	Escherichia coli	bacterial growth, broth dilution, OD600	DH5α, LB medium	16 h, 37 °C	MIC	> 100 µM
CSCC[C@H](NC=O)C(=O)N[C@@H](CCCNC(=N)N)C(=O)N[C@H](C(=O)NCC(=O)N[C@@H](CC(N)=O)C(=O)N[C@@H](C)C(=O)N[C@@H](CC(N)=O)C(=O)NCC(=O)N1CCN(c2ccc(N3C[C@H](CNC(C)=O)OC3=O)cc2F)CC1)[C@@H](C)O	Escherichia coli	broth dilution	K12 MG1655 wild type		MIC	~17.5 µM
O=C(O)C(S)c1ccccc1 (stereo not drawn)	Escherichia coli		NDM-1 producing	compound alone	MIC	> 2000 µM
CNC(C)C1CCC(N)C(OC2C(N)CC(N)C(OC3OCC(C)(O)C(NC)C3O)C2O)O1 (stereo not drawn)	Escherichia coli	microbial growth, broth dilution	K88		MIC	< 1 µM
CC[C@H](C)[C@H](NC(=O)[C@@H](CCCNC(=N)N)NC(=O)[C@H](CCCNC(=N)N)NC(=O)[C@H](CCC(=O)O)NC(=O)[C@H](Cc1c[nH]c2ccccc12)NC(=O)[C@H](CCCNC(=N)N)NC(=O)[C@@H]1CCCN1C(=O)[C@H](CCCNC(=N)N)NC(=O)[C@@H]1CCCN1C(=O)[C@H](CC(C)C)NC(=O)[C@H](Cc1ccc(O)cc1)NC(=O)[C@@H]1CCCN1C(=O)[C@@H]1CCCN1C(=O)[C@H](CCCCN)NC(=O)[C@H](CC(=O)O)NC(=O)[C@@H](N)C(C)C)C(=O)N[C@@H](Cc1ccc(O)cc1)C(=O)N[C@@H](CC(N)=O)C(=O)N[C@H](CCCNC(=N)N)C(N)=O	Escherichia coli	broth microdilution	ATCC 25922	18 h, 37 °C, 25% MHB2	MIC	32 µg/mL
CC1(C)[C@H](NC(=O)/C(=N\OCCN)c2nsc(N)n2)C(=O)N1OS(=O)(=O)O	Escherichia coli	agar dilution	CDC 1001728, NDM-1		MIC	64 µg/mL
CC(=O)N[C@H](Cc1cccc(F)c1)C(=O)N[C@@H](CCN)C(=O)N[C@H](C(=O)N[C@@H](CCN)C(=O)N[C@H]1CCNC(=O)[C@H]([C@@H](C)O)NC(=O)[C@H](CCN)NC(=O)[C@H](CCN)NC(=O)[C@H](CC(C)C)NC(=O)[C@@H](Cc2ccccc2)NC(=O)[C@H](CCN)NC1=O)[C@@H](C)O	Escherichia coli	broth microdilution	mcr-1, colistin-resistant		MIC	16 to 32 µg/mL

Some of these lines once more:
SMILES	tested on	test	system	setting	endpoint	value
O=C1NC2(CC2)COc2ncc(F)cc2[C@H]2COCCN2c2ccn3ncc1c3n2			Sprague-Dawley rat, female, blood	oral, 5 mg/kg/day, 4 weeks, end of treatment, subacute toxicity	haemoglobin	128 ± 14 g/L
CC[C@H](C)[C@H](NC(=O)[C@H](C)NC(=O)[C@@H](NC(=O)[C@H](CC(=O)O)NC(=O)[C@H](CCCCN)NC(=O)[C@H](CO)NC(=O)[C@@H](NC(=O)[C@H](CC(N)=O)NC(=O)[C@H](C)NC(=O)[C@@H](NC(=O)[C@H](CCC(=O)O)NC(=O)[C@H](CCCCN)NC(=O)[C@@H](NC(=O)[C@@H](NC(=O)[C@H](Cc1c[nH]cn1)NC(=O)[C@H](CCCCN)NC(=O)[C@@H](NC(=O)[C@H](CCCCN)NC(=O)[C@H](CCCCN)NC(=O)[C@@H](NC(=O)[C@H](CC(C)C)NC(=O)[C@H](CCCCN)NC(=O)[C@H](CC(N)=O)NC(=O)[C@H](Cc1ccccc1)NC(=O)[C@H](CCCNC(=N)N)NC(=O)[C@H](CCCCN)NC(=O)[C@H](CCCNC(=N)N)NC(=O)[C@H](Cc1ccccc1)NC(=O)CN)C(C)C)C(C)C)[C@@H](C)O)[C@@H](C)CC)[C@@H](C)O)C(C)C)C(C)C)C(=O)N[C@H](C(=O)N[C@@H](C)C(=O)NCC(=O)N[C@@H](CO)C(=O)NCC(=O)N[C@H](C(=O)N[C@@H](C)C(=O)N[C@H](C(=O)NCC(=O)N[C@@H](C)C(=O)N[C@@H](C)C(=O)N[C@@H](CCSC)C(N)=O)C(C)C)C(C)C)C(C)C	Escherichia coli		ATCC 25922, CAMHB with 10% mouse serum		MIC	0.125 µg/mL
